# Measurements pooled from the literature.
# Lines come from different studies, so protocols differ.
# Organism: Escherichia coli
Structure (SMILES),assay,system,conditions,how to read,MIC
CC[C@H](C)CCCCC(=O)N[C@@H](CCN)C(=O)N[C@H](C(=O)N[C@@H](CCN)C(=O)N[C@H]1CCNC(=O)[C@H]([C@@H](C)O)NC(=O)[C@H](CCN)NC(=O)[C@H](CCN)NC(=O)[C@H](CC(C)C)NC(=O)[C@@H](Cc2ccccc2)NC(=O)[C@H](CCN)NC1=O)[C@@H](C)O,broth microdilution,ATCC 15597,"24 h, 37 °C",,2 µg/mL
CC1(C)SC2C(NC(=O)C(NC(=O)C3=C(O)CNC3=O)c3ccccc3)C(=O)N2C1C(=O)O (stereo not drawn),broth microdilution,"ATCC 35218, low-level TEM-1",added: clavulanic acid 6 µg/mL,,> 200 µg/mL
CN1C(=O)Cc2ccc(F)c(CCNC[C@H]3CN(c4ccc5c(n4)NC(=O)CO5)C(=O)O3)c21,,ATCC 25922,,,0.03 µg/mL
Cc1cc(-c2cn[nH]c2-c2cccc(OCc3cccc(C#N)c3)c2)cc(C)n1,broth microdilution,ΔtolC JW5503,,,0.008 µg/mL
C[C@@H](O)[C@H]1C(=O)N2C(C(=O)O)=C(S[C@@H]3CN[C@H](C(=O)N(C)C)C3)[C@H](C)[C@H]12,,"1191008, multidrug-resistant",,,0.015 µg/mL
CC1(C)CC[C@]2(C(=O)O)CC[C@]3(C)C(=CC[C@@H]4[C@@]5(C)CC[C@H](O)C(C)(C)[C@@H]5CC[C@]43C)[C@@H]2C1,,"D3, NDM-1/OXA-1",,,512 µg/mL
CC[C@H](C)[C@H](NC(=O)[C@H](CCCCN)NC(=O)[C@H](CC(=O)O)NC(=O)[C@H](CC(C)C)NC(=O)[C@@H](NC(=O)[C@H](CC(N)=O)NC(=O)[C@H](CC(C)C)NC(=O)[C@@H](NC(=O)[C@H](Cc1ccccc1)NC(=O)[C@H](CCCCN)NC(=O)[C@H](CCCCN)NC(=O)CNC(=O)[C@H](C)NC(=O)[C@H](CC(N)=O)NC(=O)[C@H](CCCCN)NC(=O)[C@H](Cc1ccccc1)NC(=O)[C@H](CC(N)=O)NC(=O)[C@H](CCC(=O)O)NC(=O)[C@H](Cc1c[nH]c2ccccc12)NC(=O)[C@H](CC(C)C)NC(=O)[C@@H](N)CO)[C@@H](C)CC)[C@@H](C)CC)C(=O)N[C@@H](CCCNC(=N)N)C(N)=O,,ATCC 8739,"overnight, 37 °C, added: 150 mM NaCl",,8 µM
CC1(C)S[C@@H]2[C@H](NC(=O)C(C(=O)O)c3ccccc3)C(=O)N2[C@H]1C(=O)O (stereo partly drawn),broth microdilution,Keio mutant JW5195-1,18 h,,3.12 µg/mL
C[C@@H](O)[C@H](NC(=O)[C@H](Cc1c[nH]c2ccccc12)NC(=O)[C@H](Cc1c[nH]c2ccccc12)NC(=O)[C@H](Cc1c[nH]c2ccccc12)NC(=O)[C@@H](NC(=O)[C@H](Cc1c[nH]c2ccccc12)NC(=O)[C@H](CCCNC(=N)N)NC(=O)[C@@H](N)CCCNC(=N)N)[C@@H](C)O)C(=O)N[C@@H](Cc1c[nH]c2ccccc12)C(=O)N[C@@H](CCCNC(=N)N)C(=O)N[C@@H](CCCNC(=N)N)C(N)=O,,UB1005,"24 h, 37 °C",,2 µM
CC[C@H](C)[C@H](NC(=O)[C@H](CCCCN)NC(=O)[C@@H](NC(=O)[C@H](Cc1ccc(O)cc1)NC(=O)[C@H](CCCCN)NC(=O)[C@H](CCCCN)NC(=O)CNC(=O)[C@H](CCCCN)NC(=O)[C@@H](NC(=O)[C@H](C)NC(=O)[C@H](CC(C)C)NC(=O)[C@H](Cc1c[nH]c2ccccc12)NC(=O)CNC(=O)[C@@H](NC(=O)[C@H](Cc1ccccc1)NC(=O)[C@H](CCCCN)NC(=O)[C@H](CC(C)C)NC(=O)[C@H](Cc1ccccc1)NC(=O)[C@H](C)NC(=O)CNC(=O)[C@@H](N)CCSC)C(C)C)[C@@H](C)O)C(C)C)C(=O)N[C@@H](C)C(=O)N[C@@H](Cc1c[nH]c2ccccc12)C(=O)N[C@@H](CC(=O)O)C(=O)N[C@@H](Cc1c[nH]cn1)C(=O)N[C@@H](CCCCN)C(=O)NCC(=O)N[C@H](C(=O)N[C@H](C(=O)N[C@@H](CCSC)C(=O)N[C@@H](CCCCN)C(=O)N[C@@H](Cc1c[nH]c2ccccc12)C(=O)N[C@@H](CC(C)C)C(=O)N[C@@H](CC(N)=O)C(=O)N[C@@H](C)C(=O)NCC(=O)N[C@@H](CCC(N)=O)C(=O)N[C@H](C(=O)N[C@@H](Cc1ccccc1)C(=O)N[C@H](C(=O)N[C@@H](Cc1c[nH]c2ccccc12)C(=O)N[C@H](C(=O)N[C@@H](Cc1ccc(O)cc1)C(=O)N[C@@H](CCC(=O)O)C(=O)N[C@@H](CCC(N)=O)C(=O)N[C@H](C(=O)N[C@@H](CCCCN)C(=O)N[C@@H](CCCCN)C(=O)N[C@@H](CC(C)C)C(=O)N[C@@H](Cc1c[nH]c2ccccc12)C(=O)N[C@H](C(=O)O)[C@@H](C)O)[C@@H](C)CC)C(C)C)[C@@H](C)O)[C@@H](C)O)[C@@H](C)CC)[C@@H](C)O,,,"37 °C, non-formylated synthetic",,> 62.5 µg/mL
CC(C)C[C@@H](NC(=O)CNC(=O)[C@@H](CCCCN)NC(=O)[C@@H](CC(C)C)NC(=O)[C@@H](CCCCN)NC(=O)[C@@H](CCCNC(=N)N)NC(=O)[C@@H](CC(C)C)NC(=O)[C@@H](CC(C)C)NC(=O)[C@@H](CCCNC(=N)N)NC(=O)[C@H](N)CCCNC(=N)N)C(=O)N[C@H](CCCCN)C(=O)N[C@H](CCCCN)C(=O)N[C@H](Cc1ccc(O)cc1)C(=O)N[C@H](CC(C)C)C(=O)N[C@H](Cc1ccc(O)cc1)C(=O)N[C@H](Cc1ccccc1)C(=O)N[C@H](CCCCN)C(=O)N[C@H](CC(C)C)C(=O)N[C@H](CCC(N)=O)C(=O)N[C@H](CC(C)C)C(=O)N[C@H](CC(C)C)C(=O)N[C@H](CCCCN)C(=O)N[C@H](CCCCN)C(N)=O,broth microdilution,"KCTC 1682, Mueller-Hinton broth","24 h, 37 °C",,2 µM
CC[C@H](C)[C@H](NC(=O)CNC(=O)[C@H](CC(=O)O)NC(=O)[C@H](CCCNC(=N)N)NC(=O)[C@@H](NC(=O)[C@H](CC(N)=O)NC(=O)[C@H](CCCNC(=N)N)NC(=O)CNC(=O)[C@@H](NC(=O)[C@H](CCCCN)NC(=O)[C@H](CCC(=O)O)NC(=O)[C@@H](NC(=O)[C@H](CCCCN)NC(=O)[C@H](CCCCN)NC(=O)[C@H](Cc1ccccc1)NC(=O)[C@@H](NC(=O)[C@H](CCCCN)NC(=O)[C@H](Cc1c[nH]c2ccccc12)NC(=O)[C@@H](N)CCCNC(=N)N)[C@@H](C)CC)[C@@H](C)CC)C(C)C)C(C)C)C(=O)N[C@H](C(=O)N[C@@H](CCCCN)C(=O)N[C@@H](C)C(=O)NCC(=O)N1CCC[C@H]1C(=O)N[C@@H](C)C(=O)N[C@H](C(=O)N[C@@H](C)C(=O)N[C@H](C(=O)N[C@H](C(=O)NCC(=O)N[C@@H](CCC(N)=O)C(=O)N[C@@H](C)C(=O)N[C@@H](C)C(=O)N[C@H](C(=O)N[C@H](C(=O)N[C@H](C(=O)N[C@@H](CCCCN)C(N)=O)C(C)C)C(C)C)[C@@H](C)O)C(C)C)C(C)C)C(C)C)[C@@H](C)CC,,NCCP 16044 carbapenem-resistant,,,1 µM
CCCCCC(=O)N[C@@H](CCCNC(=N)N)C(=O)N[C@@H](CCCNC(=N)N)C(=O)N[C@@H](CCCNC(=N)N)C(=O)N[C@@H](CCCNC(=N)N)C(=O)N[C@H](C(=O)N[C@@H](CC(C)C)C(=O)N[C@H](C(=O)N[C@@H](CCCCN)C(=O)N[C@@H](CCCCN)C(=O)N[C@H](C(=O)N[C@@H](CC(C)C)C(=O)N[C@@H](CCCCN)C(=O)N[C@@H](CC(C)C)C(=O)N[C@@H](CCCCN)C(=O)N[C@@H](CO)C(=O)N[C@@H](CO)C(=O)N[C@@H](C)C(=O)N[C@@H](Cc1ccc(O)cc1)C(N)=O)C(C)C)[C@@H](C)CC)[C@@H](C)CC,checkerboard,,"24 h, 37 °C, alone, azithromycin plate",,32 µM
CC[C@H](C)[C@H](NC(=O)[C@H](CC(C)C)NC(=O)[C@H](CCCCN)NC(=O)[C@@H](NC(=O)[C@H](C)NC(=O)[C@H](CCC(=O)O)NC(=O)[C@H](Cc1c[nH]cn1)NC(=O)[C@@H](NC(=O)[C@H](CCCCN)NC(=O)[C@H](CCC(N)=O)NC(=O)[C@H](Cc1ccccc1)NC(=O)[C@@H](N)C(C)C)[C@@H](C)CC)[C@@H](C)CC)C(N)=O,broth microdilution,CCARM 1229 resistant,"18 h, 37 °C",,> 128 µM
COc1c(N2C[C@@H]3CCCN[C@@H]3C2)c(F)cc2c(=O)c(C(=O)O)cn(C3CC3)c12,,"NR 17661, fluoroquinolone-resistant",,,73 µM
Cc1ccc2[nH]c3c(c2c1)CCCC3NCCc1ccc(O)cc1 (stereo not drawn),broth microdilution,O-19592,,,> 128 µg/mL
CC(=O)Nc1ccc(/C=N/NC(=O)c2ccc(NC(=O)c3ccc(N4C(=O)C[C@H](NC(=O)c5ccc(NC(=O)c6ccc(C#N)cc6)cc5)C4=O)cc3)c(OC(C)C)c2O)cc1,,BW25113,"18 h, 37 °C, dark-adapted state",,0.04 µg/mL
CC[C@H](C)[C@H](N)C(=O)N[C@@H](CC(C)C)C(=O)N1CCC[C@H]1C(=O)N[C@@H](Cc1c[nH]c2ccccc12)C(=O)N[C@@H](CCCCN)C(=O)N[C@@H](Cc1c[nH]c2ccccc12)C(=O)N1CCC[C@H]1C(=O)N[C@@H](Cc1c[nH]c2ccccc12)C(=O)N[C@@H](Cc1c[nH]c2ccccc12)C(=O)N1CCC[C@H]1C(=O)N[C@@H](Cc1c[nH]c2ccccc12)C(=O)N[C@@H](CCCNC(=N)N)C(=O)N[C@@H](CCCNC(=N)N)C(N)=O,broth dilution,K12 BW25113,"18 h, 37 °C",,4.6 µM
CC(C)[C@H](N)C(=O)N[C@@H](CC(=O)O)C(=O)N[C@@H](CCCCN)C(=O)N[C@@H](CCCCN)C(=O)N1CCC[C@H]1C(=O)N[C@@H](Cc1ccc(O)cc1)C(=O)N[C@@H](CCCNC(=N)N)C(=O)N1CCC[C@H]1C(=O)N[C@@H](CCCNC(=N)N)C(=O)N1CCC[C@H]1C(=O)N[C@@H](CCCNC(=N)N)C(=O)N1CCC[C@H]1C(=O)N1CCC[C@H]1C(=O)N[C@@H](CCCNC(=N)N)C(N)=O,broth microdilution,MRE600,"16 h, 37 °C, 25% Mueller-Hinton broth",,2 µg/mL
CC[C@H](C)[C@H](NC(=O)CNC(=O)[C@H](CC(=O)O)NC(=O)[C@H](CCCNC(=N)N)NC(=O)[C@@H](NC(=O)[C@H](CC(N)=O)NC(=O)[C@H](CCC(=O)O)NC(=O)CNC(=O)[C@@H](NC(=O)[C@H](CCCCN)NC(=O)[C@H](CCC(=O)O)NC(=O)[C@@H](NC(=O)[C@H](CCCCN)NC(=O)[C@H](CCCCN)NC(=O)[C@H](Cc1ccccc1)NC(=O)[C@@H](NC(=O)[C@H](CCCCN)NC(=O)[C@H](Cc1c[nH]c2ccccc12)NC(=O)[C@@H](N)CCCNC(=N)N)[C@@H](C)CC)[C@@H](C)CC)C(C)C)C(C)C)C(=O)N[C@H](C(=O)N[C@@H](CCCCN)C(=O)N[C@@H](C)C(=O)NCC(=O)N1CCC[C@H]1C(=O)N[C@@H](C)C(=O)N[C@H](C(=O)N[C@@H](C)C(=O)N[C@H](C(=O)N[C@H](C(=O)NCC(=O)N[C@@H](CCC(N)=O)C(=O)N[C@@H](C)C(=O)N[C@@H](C)C(=O)N[C@H](C(=O)N[C@H](C(=O)N[C@H](C(=O)N[C@@H](CCCCN)C(N)=O)C(C)C)C(C)C)[C@@H](C)O)C(C)C)C(C)C)C(C)C)[C@@H](C)CC,,"KCTC 1682, Mueller-Hinton broth","16 h, 37 °C",growth inhibition over 99%,2 µM
CC[C@H](C)[C@H](NC(=O)[C@H](CCCCN)NC(=O)[C@@H]1CCCN1C(=O)[C@H](CCCNC(=N)N)NC(=O)[C@H](Cc1ccc(O)cc1)NC(=O)[C@H](CCCNC(=N)N)NC(=O)[C@H](CCCNC(=N)N)NC(=O)[C@@H](NC(=O)[C@H](CCCNC(=N)N)NC(=O)[C@H](CCCNC(=N)N)NC(=O)[C@H](CC(C)C)NC(=O)[C@H](Cc1ccccc1)NC(=O)[C@H](CCCNC(=N)N)NC(=O)[C@H](CO)NC(=O)[C@H](Cc1ccccc1)NC(=O)[C@@H](N)CCCNC(=N)N)C(C)C)C(=O)N[C@@H](CO)C(=O)N[C@@H](Cc1ccccc1)C(=O)N[C@@H](CC(N)=O)C(=O)N[C@@H](CC(C)C)C(=O)N[C@@H](CCC(=O)O)C(=O)N1CCC[C@H]1C(=O)N[C@@H](Cc1ccccc1)C(=O)N[C@@H](Cc1ccccc1)C(=O)N[C@@H](CCCCN)C(=O)N[C@@H](Cc1ccccc1)C(=O)O,broth microdilution,"ATCC 25922, Mueller-Hinton broth","16 to 20 h, 37 °C",,1.27 µM

# A few entries again:
Structure (SMILES),assay,system,conditions,how to read,MIC
CC[C@H](C)[C@H](NC(=O)[C@H](CCCCN)NC(=O)[C@H](CC(=O)O)NC(=O)[C@H](CC(C)C)NC(=O)[C@@H](NC(=O)[C@H](CC(N)=O)NC(=O)[C@H](CC(C)C)NC(=O)[C@@H](NC(=O)[C@H](Cc1ccccc1)NC(=O)[C@H](CCCCN)NC(=O)[C@H](CCCCN)NC(=O)CNC(=O)[C@H](C)NC(=O)[C@H](CC(N)=O)NC(=O)[C@H](CCCCN)NC(=O)[C@H](Cc1ccccc1)NC(=O)[C@H](CC(N)=O)NC(=O)[C@H](CCC(=O)O)NC(=O)[C@H](Cc1c[nH]c2ccccc12)NC(=O)[C@H](CC(C)C)NC(=O)[C@@H](N)CO)[C@@H](C)CC)[C@@H](C)CC)C(=O)N[C@@H](CCCNC(=N)N)C(N)=O,,ATCC 8739,"overnight, 37 °C, added: 150 mM NaCl",,8 µM
CC1(C)S[C@@H]2[C@H](NC(=O)C(C(=O)O)c3ccccc3)C(=O)N2[C@H]1C(=O)O (stereo partly drawn),broth microdilution,Keio mutant JW5195-1,18 h,,3.12 µg/mL
